Experimental data pooled from the literature.
“And” joins repeats or separate records; there may be more than shown. ± gives the spread as reported.
Sequence of UniProt Q96Q15 (whole entry, looked up): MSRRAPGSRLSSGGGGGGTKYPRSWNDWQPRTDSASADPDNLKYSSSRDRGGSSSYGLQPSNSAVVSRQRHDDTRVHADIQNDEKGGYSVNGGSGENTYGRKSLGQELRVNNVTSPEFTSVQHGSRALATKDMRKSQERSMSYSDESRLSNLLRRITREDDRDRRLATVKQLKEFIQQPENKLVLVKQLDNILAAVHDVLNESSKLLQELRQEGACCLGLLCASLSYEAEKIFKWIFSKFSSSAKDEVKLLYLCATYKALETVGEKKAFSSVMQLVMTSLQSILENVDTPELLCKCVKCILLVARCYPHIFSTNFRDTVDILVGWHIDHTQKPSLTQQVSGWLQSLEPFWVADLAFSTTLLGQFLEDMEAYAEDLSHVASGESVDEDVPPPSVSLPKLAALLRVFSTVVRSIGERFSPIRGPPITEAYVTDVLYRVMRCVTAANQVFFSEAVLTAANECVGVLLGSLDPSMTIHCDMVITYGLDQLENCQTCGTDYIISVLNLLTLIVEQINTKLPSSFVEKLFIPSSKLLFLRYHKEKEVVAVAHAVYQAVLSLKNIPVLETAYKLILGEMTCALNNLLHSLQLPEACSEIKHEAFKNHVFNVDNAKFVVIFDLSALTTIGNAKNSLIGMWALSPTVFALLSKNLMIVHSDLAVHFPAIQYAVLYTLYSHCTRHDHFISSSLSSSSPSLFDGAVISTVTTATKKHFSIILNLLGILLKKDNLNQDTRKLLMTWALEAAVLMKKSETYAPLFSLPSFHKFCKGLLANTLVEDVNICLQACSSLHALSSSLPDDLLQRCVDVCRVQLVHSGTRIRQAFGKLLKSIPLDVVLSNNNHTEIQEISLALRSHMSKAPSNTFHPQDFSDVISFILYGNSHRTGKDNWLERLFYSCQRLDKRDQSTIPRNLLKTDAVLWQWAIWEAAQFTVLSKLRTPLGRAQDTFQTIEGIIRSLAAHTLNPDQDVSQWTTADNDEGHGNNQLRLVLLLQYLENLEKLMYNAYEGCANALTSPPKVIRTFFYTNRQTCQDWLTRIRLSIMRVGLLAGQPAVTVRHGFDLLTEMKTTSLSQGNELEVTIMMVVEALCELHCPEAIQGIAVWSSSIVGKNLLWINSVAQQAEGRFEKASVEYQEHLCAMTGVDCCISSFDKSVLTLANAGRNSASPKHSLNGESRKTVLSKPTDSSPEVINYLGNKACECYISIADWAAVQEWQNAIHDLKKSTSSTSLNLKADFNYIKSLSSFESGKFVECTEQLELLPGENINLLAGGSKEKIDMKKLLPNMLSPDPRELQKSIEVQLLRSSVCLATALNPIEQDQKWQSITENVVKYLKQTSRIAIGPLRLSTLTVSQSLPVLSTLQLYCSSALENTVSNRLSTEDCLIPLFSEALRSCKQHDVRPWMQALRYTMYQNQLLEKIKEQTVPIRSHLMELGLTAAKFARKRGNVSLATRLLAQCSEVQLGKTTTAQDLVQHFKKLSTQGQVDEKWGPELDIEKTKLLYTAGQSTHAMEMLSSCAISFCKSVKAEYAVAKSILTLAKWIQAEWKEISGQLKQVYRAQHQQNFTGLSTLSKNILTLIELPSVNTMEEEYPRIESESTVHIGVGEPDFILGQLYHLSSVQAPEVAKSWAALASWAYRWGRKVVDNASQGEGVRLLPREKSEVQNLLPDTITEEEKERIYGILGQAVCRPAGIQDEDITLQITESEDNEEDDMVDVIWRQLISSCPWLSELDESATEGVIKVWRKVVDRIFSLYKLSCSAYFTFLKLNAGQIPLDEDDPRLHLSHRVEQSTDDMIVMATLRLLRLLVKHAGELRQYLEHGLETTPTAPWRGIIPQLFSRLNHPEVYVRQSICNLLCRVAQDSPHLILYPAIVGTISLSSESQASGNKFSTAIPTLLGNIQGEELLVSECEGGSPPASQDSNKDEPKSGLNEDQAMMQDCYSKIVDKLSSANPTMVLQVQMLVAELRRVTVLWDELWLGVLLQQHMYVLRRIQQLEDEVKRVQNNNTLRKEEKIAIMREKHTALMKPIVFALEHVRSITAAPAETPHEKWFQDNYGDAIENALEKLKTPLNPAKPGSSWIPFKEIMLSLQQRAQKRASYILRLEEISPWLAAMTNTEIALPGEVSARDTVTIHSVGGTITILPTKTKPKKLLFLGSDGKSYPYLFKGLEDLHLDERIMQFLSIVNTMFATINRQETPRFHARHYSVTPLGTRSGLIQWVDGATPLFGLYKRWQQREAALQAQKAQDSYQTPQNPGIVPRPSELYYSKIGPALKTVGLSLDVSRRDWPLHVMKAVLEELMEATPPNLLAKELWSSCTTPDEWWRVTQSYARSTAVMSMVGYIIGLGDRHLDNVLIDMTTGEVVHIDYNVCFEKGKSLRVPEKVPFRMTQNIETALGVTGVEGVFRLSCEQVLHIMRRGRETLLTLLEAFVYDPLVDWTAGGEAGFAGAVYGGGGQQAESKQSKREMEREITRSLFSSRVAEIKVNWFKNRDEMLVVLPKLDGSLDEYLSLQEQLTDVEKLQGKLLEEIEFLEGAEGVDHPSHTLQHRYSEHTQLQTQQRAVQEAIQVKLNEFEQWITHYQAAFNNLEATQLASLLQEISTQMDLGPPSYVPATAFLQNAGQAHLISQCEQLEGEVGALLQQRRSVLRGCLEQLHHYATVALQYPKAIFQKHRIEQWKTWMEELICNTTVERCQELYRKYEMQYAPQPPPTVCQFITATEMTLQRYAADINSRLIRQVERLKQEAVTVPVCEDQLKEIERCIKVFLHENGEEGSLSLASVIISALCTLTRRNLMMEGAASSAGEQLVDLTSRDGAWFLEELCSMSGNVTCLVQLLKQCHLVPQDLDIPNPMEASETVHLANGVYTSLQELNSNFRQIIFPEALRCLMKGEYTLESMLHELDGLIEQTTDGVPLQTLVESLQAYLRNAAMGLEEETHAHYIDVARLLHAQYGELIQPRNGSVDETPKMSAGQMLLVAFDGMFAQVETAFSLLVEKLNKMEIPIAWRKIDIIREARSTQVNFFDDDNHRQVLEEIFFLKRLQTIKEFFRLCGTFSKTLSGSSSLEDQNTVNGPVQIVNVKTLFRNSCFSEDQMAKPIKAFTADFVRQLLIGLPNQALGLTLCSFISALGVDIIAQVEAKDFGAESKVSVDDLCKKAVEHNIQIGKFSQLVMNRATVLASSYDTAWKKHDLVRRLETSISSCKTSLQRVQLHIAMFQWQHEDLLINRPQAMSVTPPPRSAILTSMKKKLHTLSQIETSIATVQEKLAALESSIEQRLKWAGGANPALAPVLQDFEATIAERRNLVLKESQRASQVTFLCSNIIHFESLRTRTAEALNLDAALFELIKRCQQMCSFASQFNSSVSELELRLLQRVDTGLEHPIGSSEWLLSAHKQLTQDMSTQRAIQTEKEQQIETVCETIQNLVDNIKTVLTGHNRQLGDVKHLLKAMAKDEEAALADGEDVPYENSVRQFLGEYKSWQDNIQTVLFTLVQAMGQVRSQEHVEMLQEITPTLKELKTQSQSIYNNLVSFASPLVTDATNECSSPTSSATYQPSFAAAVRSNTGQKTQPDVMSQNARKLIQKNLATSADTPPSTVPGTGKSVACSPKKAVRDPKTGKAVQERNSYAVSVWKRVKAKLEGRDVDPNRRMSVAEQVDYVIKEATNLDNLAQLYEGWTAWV

Structure (SMILES) | target or system | test | system | setting | scale | measurement | value
Cc1c(Cl)cccc1Nc1ccccc1C(=O)[Se]CC(=O)Nc1cccc(C(F)(F)F)c1 | NCI60 leukaemia subpanel | NCI60 five-dose screen | – | – | – | CC50 | 9.24 µM
N[C@H](C(=O)N1CCCC1)C1CCN(c2nccc3c(-c4ncc(Cl)cc4Cl)cccc23)CC1 | human neutrophils | protein citrullination, inhibitor, flow cytometry, refers to: citrullinated proteins | – | 31.6 nM, together with: ionomycin | – | inhibition | 10.4% and 10.3% and 18.6% and 3.55%
NC(=S)N/N=C/c1ccc(OCc2ccccc2)cc1 | IMR-32 | – | – | 300 µg/mL, 24 h | higher = more activity | catalase activity (OD450) | 0.05 a.u.
CC[C@H](C)[C@H](NC(=O)[C@H](C)NC(=O)CNC(=O)[C@H](Cc1ccccc1)NC(=O)[C@H](CC(N)=O)NC(=O)[C@H](CC(N)=O)NC(=O)[C@H](CO[C@@H]1O[C@H](CO)[C@@H](O)[C@H](O)[C@H]1NC(C)=O)NC(=O)[C@H](CO)NC(=O)[C@H](Cc1c[nH]cn1)NC(=O)[C@@H](NC(=O)[C@H](CC(C)C)NC(=O)[C@H](Cc1ccccc1)NC(=O)[C@H](CC(N)=O)NC(=O)[C@H](C)NC(=O)[C@@H](N)CC(C)C)C(C)C)C(=O)N[C@@H](CC(C)C)C(N)=O | INS-1 | MTT | – | 1 equivalents to hIAPP, 24 h, together with: hIAPP 1 µM | – | viability | 66.5%
CC(C)(C)C(=O)OCOP(=O)(OCOC(=O)C(C)(C)C)C1CCCN(O)C1=O (stereo not drawn) | LOX IMVI | – | – | – | – | GI50 | 0.465 µM
O=C(C[Se]C(=O)c1cccs1)Nc1cccc(C(F)(F)F)c1 | NCI60 leukaemia subpanel | NCI60 five-dose screen | – | – | – | GI50 | 2.81 µM
Cc1cc(C(=O)Nc2nc3cccc(C)c3n2[C@H]2CCCCN(C(=O)/C=C/CN(C)C)C2)ccn1 | Trypanosoma brucei | – | CLK1 C215S overexpressing | 50 x EC50 | – | survival | 99.5% and 81.5% and 73.5%
O=C1NC2(CC2)COc2ncc(F)cc2[C@H]2COCCN2c2ccn3ncc1c3n2 | – | – | Sprague-Dawley rat, male, serum | oral, 5 mg/kg/day, end of recovery, 4-week subacute toxicity | – | serum triglycerides | 0.37 ± 0.08 mmol/L
CC1CCC2C(C)C(OC(=O)CCC(=O)N3CCC(Nc4ccc(S(=O)(=O)NC(=O)c5ccc(N6CCN(CC7=C(c8ccc(Cl)cc8)CC(C)(C)CC7)CC6)cc5Oc5cnc6[nH]ccc6c5)cc4[N+](=O)[O-])CC3)OC3OC4(C)CCC1C32OO4 (stereo not drawn) | THP-1 | annexin V/PI flow cytometry, refers to: annexin V+/PI+ | – | 0.4 µM, 24 h | – | late apoptotic cells | 16.1%
COc1ccc(NC(=O)c2ccc3[nH]c(-c4ccc(N(C)C)cc4)nc3c2)cn1 | HCT116 | IncuCyte | – | concentration not given, 44 (unit not given) | – | PI-positive cells | 212 count and 228 count and 292 count
COc1ccccc1-c1n[nH]c2nc(NC3CCN(C(=O)Cc4ccc(F)cc4F)CC3)ncc12 | – | bead binding, competition bead pull-down, refers to: LINJ.24.1950 | Leishmania donovani extract | 10 µM | baseline: vehicle | relative abundance | 0.74
CN(C)[C@H]1C[C@@]23CC[C@@]4(O2)C(=CC[C@]2(C)[C@@H](c5ccc6ccncc6c5)CC[C@H]24)C=C3[C@@H](O)[C@@H]1O | SMG1 (Homo sapiens, UniProt Q96Q15) | ATP probe labelling, inhibitor, KiNativ profiling | – | 1 µM | – | inhibition | 5.6%
COc1ccccc1-c1n[nH]c2nc(N[C@H]3CC[C@H](NS(=O)(=O)CC(C)C)CC3)ncc12 | – | bead binding, competition bead pull-down, refers to: LINJ.36.0780 | Leishmania donovani extract | 10 µM | baseline: vehicle | relative abundance | 0.75
CC(=O)NCSC[C@H](NC(=O)[C@@H]1CCCN1C(=O)[C@H](C)NC(=O)[C@@H](NC(=O)CNC(=O)[C@@H](NC(=O)[C@H](Cc1c[nH]c2ccccc12)NC(=O)[C@H](C)NC(=O)CNC(=O)[C@H](CO)NC(=O)[C@H](C)NC(=O)[C@@H]1CCCN1C(=O)[C@H](Cc1c[nH]c2ccccc12)NC(=O)[C@H](C)NC(=O)[C@H](C)NC(=O)[C@@H](N)Cc1ccc(O)cc1)[C@@H](C)O)[C@@H](C)O)C(=O)N[C@@H](CO)C(=O)N[C@@H](C)C(=O)NCC(=O)N[C@H](C(=O)NCCOCCOCCOCCOCCOCCOCCOCCOCCOCCOCCOCCOCCC(=O)N[C@@H](CS)C(N)=O)[C@@H](C)O | H2882 lung carcinoma | cell binding, phage binding, refers to: output/input phage | – | 10 min, 37 °C | baseline: control phage | selectivity ratio | 1.1 ± 0.56
COc1ccccc1-c1ccncc1C(=O)Nc1nnc(OCc2ccc(Cl)cc2)s1 | RPE-1 TP53-/- BRCA1-/- | – | – | 4 µM, average of 2 runs | baseline: untreated | colony survival | 38.9%

A few entries again:
Structure (SMILES) | target or system | test | system | setting | scale | measurement | value
NC(=S)N/N=C/c1ccc(OCc2ccccc2)cc1 | IMR-32 | – | – | 300 µg/mL, 24 h | higher = more activity | catalase activity (OD450) | 0.05 a.u.
CC[C@H](C)[C@H](NC(=O)[C@H](C)NC(=O)CNC(=O)[C@H](Cc1ccccc1)NC(=O)[C@H](CC(N)=O)NC(=O)[C@H](CC(N)=O)NC(=O)[C@H](CO[C@@H]1O[C@H](CO)[C@@H](O)[C@H](O)[C@H]1NC(C)=O)NC(=O)[C@H](CO)NC(=O)[C@H](Cc1c[nH]cn1)NC(=O)[C@@H](NC(=O)[C@H](CC(C)C)NC(=O)[C@H](Cc1ccccc1)NC(=O)[C@H](CC(N)=O)NC(=O)[C@H](C)NC(=O)[C@@H](N)CC(C)C)C(C)C)C(=O)N[C@@H](CC(C)C)C(N)=O | INS-1 | MTT | – | 1 equivalents to hIAPP, 24 h, together with: hIAPP 1 µM | – | viability | 66.5%
